Assay results of several laboratories.
Parts stem from different laboratories: compare values within a part only.

Sample 1
Target: Sal-like protein 4, full length isoform A (SALL4, Homo sapiens, UniProt Q9UJQ4, residues 1-1053)
UniProt Q9UJQ4, sequence (whole entry, looked up): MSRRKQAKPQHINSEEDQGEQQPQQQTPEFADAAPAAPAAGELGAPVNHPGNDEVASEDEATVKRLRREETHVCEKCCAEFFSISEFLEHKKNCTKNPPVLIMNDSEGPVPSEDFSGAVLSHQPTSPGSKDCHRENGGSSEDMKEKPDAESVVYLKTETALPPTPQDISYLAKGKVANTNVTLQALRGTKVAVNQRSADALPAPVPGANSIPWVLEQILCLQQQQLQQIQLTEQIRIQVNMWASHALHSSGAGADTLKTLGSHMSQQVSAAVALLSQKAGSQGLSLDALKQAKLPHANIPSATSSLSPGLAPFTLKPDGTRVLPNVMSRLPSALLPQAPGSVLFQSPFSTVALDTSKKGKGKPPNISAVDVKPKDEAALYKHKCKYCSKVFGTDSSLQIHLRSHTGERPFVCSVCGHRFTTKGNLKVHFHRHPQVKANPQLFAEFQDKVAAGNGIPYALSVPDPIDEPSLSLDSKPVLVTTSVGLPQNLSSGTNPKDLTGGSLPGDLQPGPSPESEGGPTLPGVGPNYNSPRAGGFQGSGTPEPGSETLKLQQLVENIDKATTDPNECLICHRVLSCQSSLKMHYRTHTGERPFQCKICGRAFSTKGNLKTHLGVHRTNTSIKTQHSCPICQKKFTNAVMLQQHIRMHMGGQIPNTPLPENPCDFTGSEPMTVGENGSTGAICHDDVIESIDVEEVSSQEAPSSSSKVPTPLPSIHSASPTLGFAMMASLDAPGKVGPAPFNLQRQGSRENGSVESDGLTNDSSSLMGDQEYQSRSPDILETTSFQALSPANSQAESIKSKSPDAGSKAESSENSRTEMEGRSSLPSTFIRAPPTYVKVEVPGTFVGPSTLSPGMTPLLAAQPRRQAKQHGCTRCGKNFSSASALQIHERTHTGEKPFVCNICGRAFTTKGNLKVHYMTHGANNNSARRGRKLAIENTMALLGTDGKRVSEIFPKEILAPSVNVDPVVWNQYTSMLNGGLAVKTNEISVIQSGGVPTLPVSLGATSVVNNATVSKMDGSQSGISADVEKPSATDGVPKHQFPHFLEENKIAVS
Method: universal PBM
Form: double-stranded DNA, one strand shown
Medium: in vitro
Concentration: 600 nM
Setting: 8-mer, flanks averaged, mean of replicates
Reading: higher = stronger binding
Sequence | E-score
GCTACCCA | -0.164
GGCGCCCA | -0.278
CACGACCC | -0.214
CGATAAAG | 0.13

Sample 2
Target: Histone acetyltransferase KAT6A, winged helix 2, GST fusion (KAT6A, Homo sapiens, UniProt Q92794, residues 85-181)
Method: protein binding microarray
Form: double-stranded DNA, one strand shown
Medium: in vitro
Concentration: not given
Setting: 8-mer, flanks averaged, mean of 2 arrays, mostly near background
Baseline: not given
Reading: higher = stronger binding
Target sequence (chain): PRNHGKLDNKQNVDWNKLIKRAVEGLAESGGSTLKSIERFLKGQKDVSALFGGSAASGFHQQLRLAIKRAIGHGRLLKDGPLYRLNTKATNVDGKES
Sequence | E-score
CGGACAAC | 0.174
TATGGCGA | -0.0257
CTTCGGGA | 0.118
AAATCGCA | 0.128

Sample 3
Target: Probable WRKY transcription factor 33, C-terminal DNA-binding domain (WRKY33, Arabidopsis thaliana, UniProt Q8S8P5, residues 346-449)
Method: DNA-protein interaction ELISA
Form: double-stranded DNA, one strand shown
Medium: in vitro, bacterial lysate
Concentration: not given
Setting: whole dsDNA probe, crude lysate protein
Baseline: highest signal in screen
Reading: higher = stronger binding
Target sequence (chain): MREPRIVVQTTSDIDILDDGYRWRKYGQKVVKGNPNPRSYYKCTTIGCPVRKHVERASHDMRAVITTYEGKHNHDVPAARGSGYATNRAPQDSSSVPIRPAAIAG
Sequence | relative absorbance
AAAAAAGCTAGTGCTGCCACCAACGTAAAA | 38.4 % of maximum
AAAAAACTGCTAATCGGTGACCCGATAAAA | 49 % of maximum
AAAAAATTTGTACTTTAAGTTTACATAAAA | 32.8 % of maximum

Single results of other studies
Substance | target | assay | test system | conditions | how to read | quantity | value
PhoQ, residues 284 288 289 292 302 303 ALASRC | PhoP, residues 12 14 15 18 19 DLLYY (Escherichia coli, UniProt P23836) | Sort-seq, measured: YFP reporter | E. coli | PhoQ-PhoP variant library, with: 10 µM Mg2+ | baseline: high Mg2+ state, higher = stronger signaling | fold induction | 1.62

A few entries again (sample 1):
Sequence | E-score
CGATAAAG | 0.13
